Published values of several laboratories.
Several values in a cell are separate wells, animals, samples, runs or records. ± marks the error that the study gave. ≈ marks a conversion by molar mass, not a printed value.

Compound	organism	test	test system	setting	how to read	endpoint	result
CC(C)(C)N/N=C/c1ccc(-c2ccc(/C=N/NC(C)(C)C)cc2)cc1	Candida and Aspergillus	–	–	concentration not given, strain panel	–	antifungal activity	inactive
Cc1cccc(-c2c(-c3ccccn3)nc3n2CCC3)c1	Leishmania infantum	–	macrophages, MHOM/MA(BE)/67/ITMAP263, amastigote	–	–	IC50	0.67 µM and 0.54 µM
O=C1/C(=C/c2ccco2)CCC/C1=C\c1ccco1	Aedes aegypti	larval mortality	fourth instar larvae	72 h	–	LC50	20.1 µM
C[C@@H]1O[C@@H](OC[C@H]2O[C@@H](Oc3c(-c4ccc(O)c(O)c4)oc4cc(O)cc(O)c4c3=O)[C@H](O)[C@@H](O)[C@@H]2O)[C@H](O)[C@H](O)[C@H]1O	human immunodeficiency virus 1	viral replication	TZM-bl cells, BaL (CCR5-tropic)	48 h	–	IC50	> 100 µM
[N-]=[N+]=N[C@]1(CO)O[C@@H](n2ccc(N)nc2=O)[C@@H](F)[C@@H]1O	Murine coronavirus	viral RNA, RT-qPCR	DBT-9, MHV-A59 ExoN−	–	–	concentration at detection limit	410 nM
COc1cc(NS(=O)(=O)c2ccc([N+](=O)[O-])cc2)cc(OC)c1	Leishmania infantum	intracellular amastigote growth	U-937 macrophages and HeLa	–	baseline: IC50 HeLa over IC50 amastigotes	selectivity index	> 1.9
COC(=O)[C@@H](CCSC)NCc1cc2ccccc2nc1SC	Pseudomonas aeruginosa	–	–	16 µg/mL, without pentamidine	baseline: control	growth	94.4%
CC(C)n1ncc2c(C(=O)NCC3(C)CNC3)cc(C3CC3)nc21	coxsackievirus A6	CPE	RD	1.5 µM	–	cell protection	102% and 97.1%
Cc1ccc(-c2nc3ccccc3s2)cc1NC(=O)c1cnccc1C(F)(F)F	Leishmania mexicana	amastigote growth	J774.A1 macrophages	–	–	EC50	> 10 µM
COc1ccc(Oc2ccc(CN(Cc3ccccc3)Cc3cnc4nc(N)nc(N)c4n3)cc2)cc1	Leishmania infantum	amastigote growth	THP-1-derived macrophages	10 µM, 72 h	–	inhibition	33 ± 10%
N#Cc1ccc(N2CCN(S(=O)(=O)c3ccc(Cl)cc3)CC2)cc1NCc1ccncc1	Aedes aegypti	–	–	100 µM, 48 h, 1 instar larvae	–	larval mortality	> 80%
Fc1ccc(Nc2c(-c3ccccn3)nc3ccccn23)c(F)c1	Leishmania infantum	–	macrophages, MHOM/MA(BE)/67/ITMAP263, amastigote	–	–	IC50	6.96 µM and 8.3 µM
O=C1/C(=C/c2ccc([N+](=O)[O-])cc2[N+](=O)[O-])NC(=S)N1c1ccccc1	Bacillus cereus	–	ATCC 14579	concentration not given	–	inhibition zone diameter	15 ± 0.14 mm
Nc1nc(-c2ccccc2)nc2[nH]nc(Nc3ccc(C(F)(F)F)cc3)c12	coxsackievirus B3	–	31-1-93, NMRI mice, CVB3 chronic myocarditis	oral, 100 mg/kg twice daily, day 26, dosed days 0 to 6, score scale 0 to 7	direction not given	clinical score	0
Cc1ccccc1-c1c(-c2ccccn2)nc2n1CCC2	Leishmania infantum	–	macrophages, MHOM/MA(BE)/67/ITMAP263, amastigote	–	–	IC50	0.52 µM and 1.7 µM
N#Cc1ccc(N/N=C/c2ccc(-c3ccc(/C=N/Nc4ccc(C#N)cc4)cc3)cc2)cc1	Candida and Aspergillus	–	–	concentration not given, strain panel	–	antifungal activity	inactive
COc1cccc2nc(-c3ccccn3)c(Nc3ccc(F)cc3)n12	Leishmania infantum	–	macrophages, MHOM/MA(BE)/67/ITMAP263, amastigote	–	–	IC50	8.64 µM and 8.11 µM
Cc1ccc(C(C)C)c(OC2=C(Cl)C(=O)c3ccccc3C2=O)c1	Alternaria alternata	–	ITCC 4522	10 µg/mL	–	zone of inhibition	16 mm
COC(=O)c1cc(N)cc(NS(=O)(=O)c2ccc(OC)cc2)c1	Leishmania infantum	intracellular amastigote growth	U-937 macrophages and HeLa	–	baseline: IC50 HeLa over IC50 amastigotes	selectivity index	0.5
CC1CCC(C(C)C)C(OC2=C(Cl)C(=O)c3ccccc3C2=O)C1 (stereo not drawn)	Alternaria alternata	–	ITCC 4522	10 µg/mL	–	zone of inhibition	17 mm
O=C(O[C@@H]1O[C@@H]2COC(=O)c3cc(O)c(O)c(O)c3-c3c(cc(O)c(O)c3O)C(=O)O[C@H]([C@H]1O)[C@@H]2O)c1cc(O)c(O)c(O)c1	Streptococcus gordonii	broth microdilution	–	–	–	MBC/MIC ratio	8
CCCCCCCCCC(=O)N[C@@H](Cc1c[nH]c2ccccc12)C(=O)N[C@H](CC(N)=O)C(=O)N[C@@H](CC(=O)O)C(=O)N[C@@H]1C(=O)NCC(=O)N[C@@H](CCCN)C(=O)N[C@@H](CC(=O)O)C(=O)N[C@H](C)C(=O)N[C@@H](CC(=O)O)C(=O)NCC(=O)N[C@H](CO)C(=O)N[C@@H]([C@H](C)CC(=O)O)C(=O)N[C@@H](CC(=O)c2ccccc2N)C(=O)O[C@@H]1C	Staphylococcus aureus	broth microdilution	MRSA USA300, Mueller-Hinton broth, Mg2+ 10 mg/L	16 h, 37 °C, together with: Ca2+ 0 mM	–	MIC	> 128 µg/mL
Fc1cc(F)cc(N/N=C/c2ccc(-c3cccc(/C=N/Nc4cc(F)cc(F)c4)c3)cc2)c1	Candida and Aspergillus	–	–	concentration not given, strain panel	–	antifungal activity	inactive

Compound	organism	test	test system	setting	how to read	endpoint	result
O=C(O)C=Cc1ccc(O)cc1	human immunodeficiency virus 1	viral replication	TZM-bl cells, NL4-3 (CXCR4-tropic)	48 h	–	IC50	> 100 µM
C=CC(=O)ON=C1C=CC(=C(C#N)c2ccccc2)C=C1	Candida parapsilosis	broth dilution	ATCC 22099	48 h, 37 °C	–	MFC	32 µg/mL (≈ 116 µM)
CC(C)c1ccc(/C=C2\N=C(SCC(=O)O)N(c3ccccc3)C2=O)cc1	Bacillus cereus	–	ATCC 14579	concentration not given	–	inhibition zone diameter	27 ± 0.2 mm
CN(c1ccc(F)cc1)c1c(-c2cc(Cl)ccn2)nc2ccccn12	Leishmania infantum	–	macrophages, MHOM/MA(BE)/67/ITMAP263, amastigote	–	–	IC50	1.74 µM and 8.06 µM
N=C(N)c1cccc(OCc2ccc(COc3cccc(C(=N)N)c3)cc2)c1	Escherichia coli	–	ATCC 25922	concentration not given, together with: rifampicin	–	MIC in combination	25 µg/mL
CO[C@H]1[C@H](O[C@H]([C@H]2O[C@@H](n3ccc(=O)[nH]c3=O)[C@H](O)[C@@H]2O)[C@H](NCCCNC(=O)[C@@H](NC(=O)[C@@H](NC(=O)N[C@H](C(=O)O)C(C)C)[C@@H]2CCN=C(N)N2)[C@@H](OC(=O)CCCCCCCCCCCCN(O)C(=N)N)C(C)C)C(=O)O)O[C@H](CN)[C@H]1O	Bacillus cereus	microplate alamar blue	NRRL B-568	–	–	MIC90	> 35 µg/mL
c1ccc(-c2nc3n(c2-c2ccc4c(c2)OCO4)CCC3)nc1	Leishmania infantum	–	macrophages, MHOM/MA(BE)/67/ITMAP263, amastigote	–	–	IC50	0.67 µM and 2.16 µM
O=C1C[C@@H](c2ccc(O)cc2)Oc2cc(O)cc(O)c21	human immunodeficiency virus 1	viral replication	TZM-bl cells, BaL (CCR5-tropic)	48 h	–	IC50	> 100 µM
O=C(O)c1cccc(Cn2ccc3ccc(-c4ccc5cc[nH]c5c4)cc32)c1	human immunodeficiency virus 1	viral replication, MAGI cell	MAGI cells, Ba-L	CCR5-tropic	–	EC50	50.1 µM
NC(=O)c1ncn([C@@H]2O[C@H](CO)[C@@H](O)[C@H]2O)n1	Tobacco mosaic virus	in vivo	–	500 µg/mL	–	inactivation activity	51% and 62% and 49%
O=[N+]([O-])c1ccc(N2CCN(S(=O)(=O)c3ccc(Cl)cc3)CC2)cc1NCc1cccnc1	Aedes aegypti	–	–	100 µM, 48 h, 1 instar larvae	–	larval mortality	22%
COc1ccc(S(=O)(=O)Nc2cc(OC)c(NC(=O)CCl)cc2OC)cc1	Leishmania infantum	–	axenic amastigotes	–	baseline: IC50 HeLa over IC50 amastigotes	selectivity index	2.6
Cc1ccc2nc(-c3ccccn3)c(CN(CC(C)C)c3cccc(C(F)(F)F)c3)n2c1	Leishmania infantum	–	macrophages, MHOM/MA(BE)/67/ITMAP263, amastigote	–	–	IC50	3.53 µM and 5.98 µM
CC(C)c1ccc(/C=C2\N=C(SCc3ccc([N+](=O)[O-])cc3)N(c3ccccc3)C2=O)cc1	Bacillus cereus	–	ATCC 14579	concentration not given	–	inhibition zone diameter	12 ± 0.52 mm
COc1cc(C=O)ccc1OC1=C(Cl)C(=O)c2ccccc2C1=O	Alternaria alternata	–	ITCC 4522	10 µg/mL	–	zone of inhibition	19 mm
CC(=O)NC[C@H]1CN(c2ccc(N3CCOCC3)c(F)c2)C(=O)O1	Streptococcus pneumoniae	–	penicillin-resistant, 10 isolates	serum 0%	–	MIC50	1 µg/mL (≈ 2.96 µM)
COC[C@H]1O[C@@H]2O[C@@H]3[C@@H](OC)[C@@H](OC)[C@@H](O[C@@H]4[C@@H](OC)[C@@H](OC)[C@@H](O[C@@H]5[C@@H](OC)[C@@H](OC)[C@@H](O[C@@H]6[C@@H](OC)[C@@H](OC)[C@@H](O[C@@H]7[C@@H](OC)[C@@H](OC)[C@@H](O[C@@H]1[C@@H](OC)[C@H]2OC)O[C@@H]7COC)O[C@@H]6COC)O[C@@H]5COC)O[C@@H]4COC)O[C@@H]3COC	Escherichia coli	LuxR reporter, agonist	DH5α sensor strain	4 µM	–	bioluminescence	879 ± 22 RLU
Cc1ccc2nc(-c3ccccc3)cn2c1	Leishmania infantum	–	macrophages, MHOM/MA(BE)/67/ITMAP263, amastigote	–	–	IC50	> 64 µM
CCc1nn(C)c2nc(-c3ccc(C(=O)O)cc3)nc(NCc3ccc(F)cc3)c12	Cryptosporidium parvum	–	HCT-8	6 x EC90, 3 h	baseline: DMSO control	parasite number	100% and 81.7% and 98.8% and 93.7%
CC(C)C[C@H](NC(=O)OCc1ccccc1)C(=O)N[C@H](C=O)C[C@@H]1CCCNC1=O	human rhinovirus 16	cytopathic effect, SRB	MRC5	72 h	–	EC50	6.2 ± 0.8 µM
[H]/N=C(\N/C(=N/[H])NCCCCCCNC(=N)NC(=N)Nc1ccc(Cl)cc1)Nc1ccc(Cl)cc1	Streptococcus gordonii	–	BHI agar	500 µg/disc	–	zone of inhibition	17 ± 1.7 mm
Cc1cc(OC(C)C)ccc1C(=O)C(C)(C)NC(=O)c1sccc1C	Botrytis cinerea	germ tube elongation	B05.10	0.03 µg/mL	–	inhibition	54.1 ± 30.4%

For quick reference, copied from above:
Compound	organism	test	test system	setting	how to read	endpoint	result
Cc1ccccc1-c1c(-c2ccccn2)nc2n1CCC2	Leishmania infantum	–	macrophages, MHOM/MA(BE)/67/ITMAP263, amastigote	–	–	IC50	0.52 µM and 1.7 µM
COc1cc(C=O)ccc1OC1=C(Cl)C(=O)c2ccccc2C1=O	Alternaria alternata	–	ITCC 4522	10 µg/mL	–	zone of inhibition	19 mm
CN(c1ccc(F)cc1)c1c(-c2cc(Cl)ccn2)nc2ccccn12	Leishmania infantum	–	macrophages, MHOM/MA(BE)/67/ITMAP263, amastigote	–	–	IC50	1.74 µM and 8.06 µM
COc1ccc(Oc2ccc(CN(Cc3ccccc3)Cc3cnc4nc(N)nc(N)c4n3)cc2)cc1	Leishmania infantum	amastigote growth	THP-1-derived macrophages	10 µM, 72 h	–	inhibition	33 ± 10%
CCc1nn(C)c2nc(-c3ccc(C(=O)O)cc3)nc(NCc3ccc(F)cc3)c12	Cryptosporidium parvum	–	HCT-8	6 x EC90, 3 h	baseline: DMSO control	parasite number	100% and 81.7% and 98.8% and 93.7%
